# Assay results from different studies.
# Each numbered part is a random draw from the data of one study; scales do not carry over between parts. Positions count from the first letter of the parent shown.
# Sequence of UniProt Q8WU08 (whole entry, looked up): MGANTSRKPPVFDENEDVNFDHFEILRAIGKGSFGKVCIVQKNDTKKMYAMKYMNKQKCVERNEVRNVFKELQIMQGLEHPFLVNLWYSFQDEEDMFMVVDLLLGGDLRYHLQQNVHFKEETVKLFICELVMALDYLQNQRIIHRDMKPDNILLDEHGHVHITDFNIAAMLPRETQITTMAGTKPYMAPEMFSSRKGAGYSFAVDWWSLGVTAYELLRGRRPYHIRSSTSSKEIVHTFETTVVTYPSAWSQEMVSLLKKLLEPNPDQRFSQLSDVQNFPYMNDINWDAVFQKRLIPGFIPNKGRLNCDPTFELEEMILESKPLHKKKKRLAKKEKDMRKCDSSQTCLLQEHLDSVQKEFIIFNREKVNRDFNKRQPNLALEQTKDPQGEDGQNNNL
# Sequence of UniProt P11802 (whole entry, looked up): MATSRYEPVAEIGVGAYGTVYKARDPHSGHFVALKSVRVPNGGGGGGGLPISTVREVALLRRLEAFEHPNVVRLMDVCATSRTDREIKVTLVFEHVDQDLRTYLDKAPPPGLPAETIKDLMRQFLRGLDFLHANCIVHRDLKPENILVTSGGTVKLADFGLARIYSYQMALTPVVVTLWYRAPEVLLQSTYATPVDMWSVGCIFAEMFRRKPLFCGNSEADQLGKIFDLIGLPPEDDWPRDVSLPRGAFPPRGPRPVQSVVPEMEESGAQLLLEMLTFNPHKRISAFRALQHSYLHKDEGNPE
# Sequence of UniProt P49674 (whole entry, looked up): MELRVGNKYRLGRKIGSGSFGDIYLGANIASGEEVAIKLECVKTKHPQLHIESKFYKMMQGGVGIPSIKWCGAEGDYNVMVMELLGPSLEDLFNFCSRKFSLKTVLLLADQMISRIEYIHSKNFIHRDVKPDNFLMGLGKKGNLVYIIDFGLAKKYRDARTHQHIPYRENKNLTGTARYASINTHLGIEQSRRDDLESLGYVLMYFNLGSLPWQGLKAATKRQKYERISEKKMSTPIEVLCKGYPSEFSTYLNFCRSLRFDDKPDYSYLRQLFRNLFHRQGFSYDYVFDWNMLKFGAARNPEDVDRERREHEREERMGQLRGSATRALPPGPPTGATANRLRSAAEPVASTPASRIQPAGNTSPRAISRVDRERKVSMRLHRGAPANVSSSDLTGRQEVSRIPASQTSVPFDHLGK
# Sequence of UniProt Q96J92 (whole entry, looked up): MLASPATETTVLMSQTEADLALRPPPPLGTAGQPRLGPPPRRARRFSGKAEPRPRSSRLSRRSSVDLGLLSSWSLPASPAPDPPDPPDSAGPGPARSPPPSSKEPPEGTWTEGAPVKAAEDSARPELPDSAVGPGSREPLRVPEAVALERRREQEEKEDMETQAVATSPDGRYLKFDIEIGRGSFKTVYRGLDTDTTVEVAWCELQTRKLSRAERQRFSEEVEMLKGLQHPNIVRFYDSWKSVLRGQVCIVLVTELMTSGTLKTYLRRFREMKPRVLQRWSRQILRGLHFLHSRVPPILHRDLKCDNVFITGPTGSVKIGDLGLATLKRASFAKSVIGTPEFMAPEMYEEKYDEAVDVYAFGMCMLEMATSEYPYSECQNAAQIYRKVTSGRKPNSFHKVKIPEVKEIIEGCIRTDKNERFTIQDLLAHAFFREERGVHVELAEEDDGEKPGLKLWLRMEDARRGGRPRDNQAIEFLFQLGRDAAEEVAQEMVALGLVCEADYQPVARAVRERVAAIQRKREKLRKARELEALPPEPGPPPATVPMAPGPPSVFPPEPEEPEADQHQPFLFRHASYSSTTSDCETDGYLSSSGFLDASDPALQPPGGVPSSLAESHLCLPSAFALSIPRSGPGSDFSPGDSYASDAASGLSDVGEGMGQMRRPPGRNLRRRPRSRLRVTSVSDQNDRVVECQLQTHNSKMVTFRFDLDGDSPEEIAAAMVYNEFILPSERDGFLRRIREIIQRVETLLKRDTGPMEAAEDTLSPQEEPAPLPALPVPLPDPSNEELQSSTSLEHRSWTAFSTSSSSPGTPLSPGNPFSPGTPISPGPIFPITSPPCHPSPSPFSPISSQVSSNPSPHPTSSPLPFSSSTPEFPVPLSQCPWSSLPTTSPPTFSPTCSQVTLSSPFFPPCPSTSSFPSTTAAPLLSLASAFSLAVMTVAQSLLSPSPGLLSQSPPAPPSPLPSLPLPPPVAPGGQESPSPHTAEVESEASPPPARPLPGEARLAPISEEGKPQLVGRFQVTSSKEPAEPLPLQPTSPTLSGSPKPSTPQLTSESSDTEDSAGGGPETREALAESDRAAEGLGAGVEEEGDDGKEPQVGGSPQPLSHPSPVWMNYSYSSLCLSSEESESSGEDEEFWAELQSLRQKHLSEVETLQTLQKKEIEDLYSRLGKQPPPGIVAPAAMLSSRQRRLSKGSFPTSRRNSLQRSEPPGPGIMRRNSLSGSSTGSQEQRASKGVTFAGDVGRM
# Sequence of UniProt Q9HBY8 (whole entry, looked up): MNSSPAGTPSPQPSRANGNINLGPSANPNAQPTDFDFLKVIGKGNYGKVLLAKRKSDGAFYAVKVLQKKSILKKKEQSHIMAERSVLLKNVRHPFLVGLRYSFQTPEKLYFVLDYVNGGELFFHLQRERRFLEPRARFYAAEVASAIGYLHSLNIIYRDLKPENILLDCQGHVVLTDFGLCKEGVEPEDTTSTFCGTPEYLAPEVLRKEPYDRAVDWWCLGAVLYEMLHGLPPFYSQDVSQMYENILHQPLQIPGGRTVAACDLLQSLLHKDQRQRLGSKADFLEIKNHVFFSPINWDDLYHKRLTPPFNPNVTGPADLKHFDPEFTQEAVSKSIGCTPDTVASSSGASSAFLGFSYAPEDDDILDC
# Sequence of UniProt P19525 (whole entry, looked up): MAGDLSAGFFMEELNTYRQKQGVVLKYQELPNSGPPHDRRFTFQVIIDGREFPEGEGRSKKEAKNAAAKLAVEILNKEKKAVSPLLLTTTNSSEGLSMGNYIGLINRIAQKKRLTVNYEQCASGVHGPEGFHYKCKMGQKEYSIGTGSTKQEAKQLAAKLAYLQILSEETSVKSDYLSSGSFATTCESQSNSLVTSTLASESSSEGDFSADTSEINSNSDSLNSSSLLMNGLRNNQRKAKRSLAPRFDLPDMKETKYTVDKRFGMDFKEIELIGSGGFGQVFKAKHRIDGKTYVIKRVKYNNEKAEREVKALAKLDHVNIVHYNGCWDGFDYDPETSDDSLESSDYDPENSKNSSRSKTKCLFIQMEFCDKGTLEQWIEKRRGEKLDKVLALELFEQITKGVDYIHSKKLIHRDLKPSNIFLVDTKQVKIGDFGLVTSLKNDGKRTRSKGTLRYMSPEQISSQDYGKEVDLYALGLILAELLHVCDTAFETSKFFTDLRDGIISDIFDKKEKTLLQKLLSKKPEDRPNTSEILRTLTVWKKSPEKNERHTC
# Sequence of UniProt P07333 (whole entry, looked up): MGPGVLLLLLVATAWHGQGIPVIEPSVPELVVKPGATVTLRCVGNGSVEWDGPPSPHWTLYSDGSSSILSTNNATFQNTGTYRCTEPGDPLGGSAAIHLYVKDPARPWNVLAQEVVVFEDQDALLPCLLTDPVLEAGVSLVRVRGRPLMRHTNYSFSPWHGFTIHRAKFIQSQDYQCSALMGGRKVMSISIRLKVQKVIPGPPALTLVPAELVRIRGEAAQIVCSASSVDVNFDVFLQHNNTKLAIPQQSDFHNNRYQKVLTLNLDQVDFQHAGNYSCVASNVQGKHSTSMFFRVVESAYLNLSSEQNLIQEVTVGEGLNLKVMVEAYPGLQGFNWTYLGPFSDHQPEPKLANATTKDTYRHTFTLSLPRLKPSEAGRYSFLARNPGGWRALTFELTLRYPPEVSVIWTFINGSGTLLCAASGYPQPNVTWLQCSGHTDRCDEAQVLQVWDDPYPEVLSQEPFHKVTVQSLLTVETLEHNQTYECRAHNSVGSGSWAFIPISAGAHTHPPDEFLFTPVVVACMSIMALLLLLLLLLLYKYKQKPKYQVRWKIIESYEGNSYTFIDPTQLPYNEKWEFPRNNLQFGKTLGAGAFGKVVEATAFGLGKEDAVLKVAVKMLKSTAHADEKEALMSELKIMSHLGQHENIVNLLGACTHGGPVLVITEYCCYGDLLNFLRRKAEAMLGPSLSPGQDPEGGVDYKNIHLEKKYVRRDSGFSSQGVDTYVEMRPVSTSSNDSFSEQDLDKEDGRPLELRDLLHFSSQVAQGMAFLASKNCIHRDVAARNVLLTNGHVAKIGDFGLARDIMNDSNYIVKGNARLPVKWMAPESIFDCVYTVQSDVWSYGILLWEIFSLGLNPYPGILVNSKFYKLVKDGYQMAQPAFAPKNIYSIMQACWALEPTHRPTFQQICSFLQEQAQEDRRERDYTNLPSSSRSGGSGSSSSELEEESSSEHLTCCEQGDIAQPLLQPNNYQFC

# Study 1
# Target: CCNB1, cyclin fold, Cln2 fusion (human)
# Method: yeast growth competition, sequencing
# Matrix: yeast
# Notes: strong parent motif
# Baseline: not given
# Reading: higher = stronger binding
# Starting sequence: E2F1 docking peptide (human); PPVKRRLDLETDH
Change,normalised enrichment score
V3S,0.629
K4L,0.811
P1I,0.847
R5P,-0.989
L7V,0.0615
P2F,0.926
D12C,0.81
R6H,0.897

# Study 2
# Compound: O=C(Nc1cnc(Oc2ccc(F)cc2)nc1)N1CCc2ncccc2[C@@H]1c1ccc(F)cc1
# Method: competition with immobilised ligand
# Tested at: 1 µM
target,observed,remaining binding [%]
"GAK (Homo sapiens, UniProt O14976)",cell-free assay,94
"FLT3 (Homo sapiens, UniProt P36888, D835Y)",cell-free assay,100
"DSTYK (Homo sapiens, UniProt Q6XUX3)",cell-free assay,100
"CAMK2B (Homo sapiens, UniProt Q13554)",cell-free assay,92
"Ribosomal protein S6 kinase alpha-3, C-terminal kinase domain (RPS6KA3, Homo sapiens, UniProt P51812)",cell-free assay,91
"STK38L (Homo sapiens, UniProt Q9Y2H1)",cell-free assay,75
"Cyclin-dependent kinase 4, with cyclin D3 (CDK4, Homo sapiens, UniProt P11802)",cell-free assay,100
"WNK4 (Homo sapiens, UniProt Q96J92)",cell-free assay,81
"Tyrosine-protein kinase ABL1, phosphorylated (ABL1, Homo sapiens, UniProt P00519, Y253F)",cell-free assay,100
"CSNK1E (Homo sapiens, UniProt P49674)",cell-free assay,66
"EPHA1 (Homo sapiens, UniProt P21709)",cell-free assay,100
"Macrophage colony-stimulating factor 1 receptor, autoinhibited (CSF1R, Homo sapiens, UniProt P07333)",cell-free assay,93
"EPHB2 (Homo sapiens, UniProt P29323)",cell-free assay,87
"EIF2AK2 (Homo sapiens, UniProt P19525)",cell-free assay,73
"MAPKAPK2 (Homo sapiens, UniProt P49137)",cell-free assay,80
"MAPKAPK5 (Homo sapiens, UniProt Q8IW41)",cell-free assay,91
"NEK6 (Homo sapiens, UniProt Q9HC98)",cell-free assay,100
"CDK2 (Homo sapiens, UniProt P24941)",cell-free assay,100
"SGK2 (Homo sapiens, UniProt Q9HBY8)",cell-free assay,79
"CAMK4 (Homo sapiens, UniProt Q16566)",cell-free assay,97
"Myosin-IIIb (MYO3B, Homo sapiens, UniProt Q8WXR4)",binding,100
"STK32A (Homo sapiens, UniProt Q8WU08)",cell-free assay,100

# Study 3
# Target: Protein kinase C zeta type (PRKCZ, Homo sapiens, UniProt Q05513)
# Sequence of UniProt Q05513 (whole entry, looked up): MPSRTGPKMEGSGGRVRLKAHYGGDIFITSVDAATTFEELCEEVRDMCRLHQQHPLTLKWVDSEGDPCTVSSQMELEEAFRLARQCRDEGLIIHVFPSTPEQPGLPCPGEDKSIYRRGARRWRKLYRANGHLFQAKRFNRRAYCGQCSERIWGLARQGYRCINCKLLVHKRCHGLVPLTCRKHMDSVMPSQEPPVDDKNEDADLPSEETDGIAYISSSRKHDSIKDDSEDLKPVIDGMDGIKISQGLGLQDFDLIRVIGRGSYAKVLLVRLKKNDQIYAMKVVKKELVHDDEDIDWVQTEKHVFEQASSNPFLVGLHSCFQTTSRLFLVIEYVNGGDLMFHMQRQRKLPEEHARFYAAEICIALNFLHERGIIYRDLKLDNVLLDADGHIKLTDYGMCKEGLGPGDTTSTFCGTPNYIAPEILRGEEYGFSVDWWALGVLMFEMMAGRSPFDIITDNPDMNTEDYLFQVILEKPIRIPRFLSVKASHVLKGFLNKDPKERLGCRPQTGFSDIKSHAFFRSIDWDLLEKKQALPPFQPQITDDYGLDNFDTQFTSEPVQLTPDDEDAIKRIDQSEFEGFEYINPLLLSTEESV
# Observed: enzyme activity
# Mode: inhibitor
# Tested at: 0.5 µM
# Baseline: control
SMILES,remaining activity [%]
Cc1nc(-c2ccccc2)c(-c2ccncc2)o1,103
COc1ccc(C(=O)Nc2sc3c(c2C(N)=O)CCCC3)cc1OC,89.3
O=C1NC(=O)C(c2cn(CCCO)c3ncccc23)=C1c1cnccn1,88.5
O=c1c2ccccc2[nH]c(=S)n1CCN1CCC(=C(c2ccc(F)cc2)c2ccc(F)cc2)CC1,102
O=C(CCCc1ccc(-c2ccccc2F)cc1)Nc1ccc(O)cc1,116
NCCNc1ncc(C(N)=O)c(Nc2cccc(C(F)(F)F)c2)n1,85.5
N#CC(C#N)=C(N)/C(C#N)=C/c1ccc(O)cc1,105
Cn1c2ccccc2c2c3c(c4c5ccccc5n(CCC#N)c4c21)CNC3=O,87
Nc1[nH]nc2nc3ccccc3nc12,106
C#Cc1cccc(Nc2ncnc3cc(OCCOC)c(OCCOC)cc23)c1,92.3
Cc1ccc(Nc2nccc(N(C)c3ccc4c(C)n(C)nc4c3)n2)cc1S(N)(=O)=O,97.7
Nc1ncnc2n[nH]c(Nc3ccc(F)cc3)c12,109
CNC(=O)c1cc(Oc2ccc(NC(=O)Nc3ccc(Cl)c(C(F)(F)F)c3)cc2)ccn1,94.5
COc1ccc(CNC(=O)Nc2ncc([N+](=O)[O-])s2)cc1,96.3
CCOC(=O)c1c(C)[nH]c(/C=C2\C(=O)Nc3ccccc32)c1C,97

# Further values, each from its own experiment
Substance,target,assay,test system,setting,scale,quantity,result
"PhoQ, residues 284 288 289 292 302 303 TVTVVA","PhoP, residues 12 14 15 18 19 LQHIR (Escherichia coli, UniProt P23836)","Sort-seq, refers to: YFP reporter",E. coli,"PhoQ-PhoP variant library, added: 10 µM Mg2+","baseline: high Mg2+ state, higher = stronger signaling",fold induction,6.91
